Measured values gathered from unrelated publications.
Each numbered part is a random draw from the data of one study; scales do not carry over between parts. Several values in a cell are separate wells, animals, samples, runs or records.
UniProt P50750, sequence (whole entry, looked up): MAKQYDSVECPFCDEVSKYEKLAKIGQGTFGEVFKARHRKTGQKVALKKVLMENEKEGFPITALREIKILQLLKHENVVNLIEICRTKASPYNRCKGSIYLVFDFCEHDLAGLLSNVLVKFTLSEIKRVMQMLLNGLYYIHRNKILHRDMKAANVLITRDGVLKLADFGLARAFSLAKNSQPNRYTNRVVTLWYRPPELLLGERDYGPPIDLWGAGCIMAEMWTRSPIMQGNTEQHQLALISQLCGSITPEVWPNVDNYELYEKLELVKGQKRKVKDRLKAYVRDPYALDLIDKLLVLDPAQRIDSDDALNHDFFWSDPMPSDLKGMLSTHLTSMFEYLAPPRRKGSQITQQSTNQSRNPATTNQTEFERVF
UniProt Q9NWZ3, sequence (whole entry, looked up): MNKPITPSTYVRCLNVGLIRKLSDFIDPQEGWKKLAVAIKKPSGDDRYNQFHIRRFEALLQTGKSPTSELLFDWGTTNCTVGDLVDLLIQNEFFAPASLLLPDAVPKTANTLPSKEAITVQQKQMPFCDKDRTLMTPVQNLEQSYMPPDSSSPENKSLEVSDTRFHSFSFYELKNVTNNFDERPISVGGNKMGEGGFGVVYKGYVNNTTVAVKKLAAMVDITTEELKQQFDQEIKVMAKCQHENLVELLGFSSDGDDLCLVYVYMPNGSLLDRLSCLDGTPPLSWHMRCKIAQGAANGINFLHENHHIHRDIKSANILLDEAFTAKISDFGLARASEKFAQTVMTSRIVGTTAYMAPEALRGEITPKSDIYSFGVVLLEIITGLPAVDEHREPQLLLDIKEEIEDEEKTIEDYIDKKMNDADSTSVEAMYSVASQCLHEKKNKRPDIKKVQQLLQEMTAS
UniProt Q13705, sequence (whole entry, looked up): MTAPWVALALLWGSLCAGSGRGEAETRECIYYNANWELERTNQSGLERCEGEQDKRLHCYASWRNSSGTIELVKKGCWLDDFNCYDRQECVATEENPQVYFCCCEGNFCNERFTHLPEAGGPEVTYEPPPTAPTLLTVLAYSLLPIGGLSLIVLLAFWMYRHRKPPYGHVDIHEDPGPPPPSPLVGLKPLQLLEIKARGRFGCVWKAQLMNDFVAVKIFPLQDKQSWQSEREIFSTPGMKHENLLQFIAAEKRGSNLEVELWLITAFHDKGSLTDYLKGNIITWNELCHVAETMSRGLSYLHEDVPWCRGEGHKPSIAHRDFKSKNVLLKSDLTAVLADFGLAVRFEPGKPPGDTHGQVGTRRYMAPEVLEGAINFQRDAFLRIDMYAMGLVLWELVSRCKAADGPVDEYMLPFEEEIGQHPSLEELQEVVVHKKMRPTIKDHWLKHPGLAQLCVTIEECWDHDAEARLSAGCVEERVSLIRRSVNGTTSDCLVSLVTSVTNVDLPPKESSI
UniProt Q99755, sequence (whole entry, looked up): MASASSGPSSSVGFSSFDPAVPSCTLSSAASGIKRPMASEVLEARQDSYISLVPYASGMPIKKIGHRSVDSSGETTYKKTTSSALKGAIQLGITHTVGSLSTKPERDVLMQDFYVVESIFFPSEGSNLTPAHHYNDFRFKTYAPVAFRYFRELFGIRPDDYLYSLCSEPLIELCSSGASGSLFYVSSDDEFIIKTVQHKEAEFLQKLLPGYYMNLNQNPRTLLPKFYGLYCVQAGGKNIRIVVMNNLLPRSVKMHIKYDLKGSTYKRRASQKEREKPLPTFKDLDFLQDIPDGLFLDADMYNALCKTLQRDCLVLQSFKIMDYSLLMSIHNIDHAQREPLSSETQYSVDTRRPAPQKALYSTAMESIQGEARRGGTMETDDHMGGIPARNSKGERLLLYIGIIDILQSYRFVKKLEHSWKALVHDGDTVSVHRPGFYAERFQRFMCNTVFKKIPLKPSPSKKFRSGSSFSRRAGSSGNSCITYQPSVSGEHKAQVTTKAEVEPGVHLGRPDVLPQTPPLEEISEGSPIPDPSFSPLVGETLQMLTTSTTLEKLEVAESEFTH
UniProt O43318, sequence (whole entry, looked up): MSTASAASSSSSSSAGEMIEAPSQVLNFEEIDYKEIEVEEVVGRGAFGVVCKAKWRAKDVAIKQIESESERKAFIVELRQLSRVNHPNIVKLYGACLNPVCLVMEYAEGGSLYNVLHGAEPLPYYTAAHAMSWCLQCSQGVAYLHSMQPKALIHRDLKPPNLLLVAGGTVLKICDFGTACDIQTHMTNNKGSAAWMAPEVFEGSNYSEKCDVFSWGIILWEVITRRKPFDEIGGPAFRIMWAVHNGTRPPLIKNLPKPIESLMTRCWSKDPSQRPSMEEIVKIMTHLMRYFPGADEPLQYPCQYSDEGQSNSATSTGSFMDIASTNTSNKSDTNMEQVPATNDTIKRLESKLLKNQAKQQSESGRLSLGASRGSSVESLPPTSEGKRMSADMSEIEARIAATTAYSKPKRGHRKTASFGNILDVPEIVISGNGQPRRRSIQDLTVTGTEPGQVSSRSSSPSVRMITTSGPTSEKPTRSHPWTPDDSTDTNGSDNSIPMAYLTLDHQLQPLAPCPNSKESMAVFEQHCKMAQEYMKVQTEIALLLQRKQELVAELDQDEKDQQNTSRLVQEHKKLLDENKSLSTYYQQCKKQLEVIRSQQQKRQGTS
UniProt Q8NFD2, sequence (whole entry, looked up): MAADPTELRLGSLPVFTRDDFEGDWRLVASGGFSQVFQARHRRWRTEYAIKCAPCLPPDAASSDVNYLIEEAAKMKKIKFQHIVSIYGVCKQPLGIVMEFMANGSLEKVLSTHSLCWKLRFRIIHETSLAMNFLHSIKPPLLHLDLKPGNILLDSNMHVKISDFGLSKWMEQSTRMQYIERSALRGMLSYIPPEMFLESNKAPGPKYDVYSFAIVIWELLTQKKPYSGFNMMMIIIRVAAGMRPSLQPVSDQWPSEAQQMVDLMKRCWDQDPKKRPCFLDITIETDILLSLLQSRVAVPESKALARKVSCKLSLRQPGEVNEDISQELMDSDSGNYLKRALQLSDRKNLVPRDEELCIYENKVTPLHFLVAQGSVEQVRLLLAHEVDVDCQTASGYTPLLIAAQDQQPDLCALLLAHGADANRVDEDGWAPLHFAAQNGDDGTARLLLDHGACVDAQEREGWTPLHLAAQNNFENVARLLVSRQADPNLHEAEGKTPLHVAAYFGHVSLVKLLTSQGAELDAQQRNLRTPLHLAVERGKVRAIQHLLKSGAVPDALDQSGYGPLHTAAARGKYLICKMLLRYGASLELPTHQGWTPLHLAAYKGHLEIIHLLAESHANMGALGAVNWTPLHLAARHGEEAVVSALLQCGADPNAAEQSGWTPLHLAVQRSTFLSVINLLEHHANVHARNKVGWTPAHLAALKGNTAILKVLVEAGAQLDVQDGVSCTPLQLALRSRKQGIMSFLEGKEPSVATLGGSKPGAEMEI
UniProt Q02779, sequence (whole entry, looked up): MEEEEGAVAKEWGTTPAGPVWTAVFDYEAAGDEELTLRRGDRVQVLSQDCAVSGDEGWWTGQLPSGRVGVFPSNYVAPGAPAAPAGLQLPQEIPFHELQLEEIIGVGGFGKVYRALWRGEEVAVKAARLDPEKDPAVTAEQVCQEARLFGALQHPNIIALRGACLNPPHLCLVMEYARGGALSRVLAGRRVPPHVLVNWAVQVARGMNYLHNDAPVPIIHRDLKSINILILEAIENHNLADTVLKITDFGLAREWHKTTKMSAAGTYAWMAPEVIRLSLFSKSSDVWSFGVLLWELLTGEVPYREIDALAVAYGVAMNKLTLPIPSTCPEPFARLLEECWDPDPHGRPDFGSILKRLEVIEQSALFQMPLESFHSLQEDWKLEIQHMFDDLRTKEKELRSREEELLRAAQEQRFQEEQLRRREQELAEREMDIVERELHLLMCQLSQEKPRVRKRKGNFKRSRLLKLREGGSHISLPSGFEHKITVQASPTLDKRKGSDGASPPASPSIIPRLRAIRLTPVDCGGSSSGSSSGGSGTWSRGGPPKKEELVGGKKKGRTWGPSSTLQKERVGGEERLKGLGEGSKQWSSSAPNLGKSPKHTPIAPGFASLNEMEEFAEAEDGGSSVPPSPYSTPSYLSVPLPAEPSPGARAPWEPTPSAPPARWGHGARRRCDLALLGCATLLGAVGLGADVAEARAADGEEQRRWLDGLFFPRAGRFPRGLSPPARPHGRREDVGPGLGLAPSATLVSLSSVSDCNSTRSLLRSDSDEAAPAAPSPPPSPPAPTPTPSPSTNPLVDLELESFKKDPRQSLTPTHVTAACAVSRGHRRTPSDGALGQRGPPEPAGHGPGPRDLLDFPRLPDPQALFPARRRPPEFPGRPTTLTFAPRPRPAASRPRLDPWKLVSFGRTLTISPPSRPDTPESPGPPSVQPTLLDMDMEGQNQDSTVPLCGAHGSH
UniProt Q13976, sequence (whole entry, looked up): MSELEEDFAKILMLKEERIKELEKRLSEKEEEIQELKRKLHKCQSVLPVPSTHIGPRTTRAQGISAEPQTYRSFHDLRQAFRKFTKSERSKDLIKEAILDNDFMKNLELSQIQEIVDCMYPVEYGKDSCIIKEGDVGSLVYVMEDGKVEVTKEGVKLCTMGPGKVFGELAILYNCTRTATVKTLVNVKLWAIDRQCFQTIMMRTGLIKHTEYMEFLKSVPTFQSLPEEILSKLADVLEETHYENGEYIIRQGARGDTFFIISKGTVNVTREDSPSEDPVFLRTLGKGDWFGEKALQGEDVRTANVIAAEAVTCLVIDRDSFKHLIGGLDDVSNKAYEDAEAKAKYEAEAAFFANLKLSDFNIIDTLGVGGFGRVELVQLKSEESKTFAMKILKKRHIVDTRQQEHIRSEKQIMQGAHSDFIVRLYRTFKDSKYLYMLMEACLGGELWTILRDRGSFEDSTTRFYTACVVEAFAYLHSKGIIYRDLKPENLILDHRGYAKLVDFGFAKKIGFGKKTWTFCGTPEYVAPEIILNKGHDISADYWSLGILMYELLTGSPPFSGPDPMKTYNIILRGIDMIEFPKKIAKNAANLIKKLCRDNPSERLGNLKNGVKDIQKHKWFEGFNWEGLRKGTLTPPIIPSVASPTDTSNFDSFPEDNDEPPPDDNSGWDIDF

Block 1 — organism: Plasmodium berghei; mode: inhibitor; cell line: Huh-7; strain: liver stage; tested at: 10 µM; time: 24 h; relative to: untreated control
Nc1nnc(-c2cccc(Cl)c2Cl)c(N)n1 gave an infection rate of 96.8%.
With CC(=O)OCC(CCn1cnc2cnc(N)nc21)COC(C)=O the infection rate was 91.7%.
With CC(O)(P(=O)(O)O)P(=O)(O)O the infection rate was 95.6%.
CCCCC(=O)O[C@]1(C(=O)CO)CC[C@H]2[C@@H]3CCC4=CC(=O)CC[C@]4(C)[C@H]3[C@@H](O)C[C@@]21C has an infection rate of 72.3%.
Nc1ccc(O)c(C(=O)O)c1 gave an infection rate of 103%.
With CC(=O)OC(C)C[N+](C)(C)C (stereo not drawn) the infection rate was 99%.
CC(=O)O[C@]1(C(C)=O)CC[C@H]2[C@@H]3C[C@H](C)C4=CC(=O)CC[C@]4(C)[C@H]3CC[C@@]21C has an infection rate of 65.8%.

Block 2 — read-out: enzyme activity; mode: inhibitor; tested at: 0.5 µM; relative to: control
SMILES: FC(F)(F)c1ccc(/C=C/c2nc(COc3ccc(CCCCn4ccnn4)cc3)co2)cc1
For Cyclin-dependent kinase 9, with cyclin T1 (CDK9, Homo sapiens, UniProt P50750): remaining activity read 99.5%.
For CHEK1 (Homo sapiens, UniProt O14757): remaining activity read 108%.
It gave 75.9% for remaining activity (PRKG1 (Homo sapiens, UniProt Q13976)).
The remaining activity was 99.1% (MAPK13 (Homo sapiens, UniProt O15264)).
MAP3K10 (Homo sapiens, UniProt Q02779) — remaining activity: 98.9%.
The remaining activity was 100% (MAP2K6 (Homo sapiens, UniProt P52564)).
For IRAK4 (Homo sapiens, UniProt Q9NWZ3): remaining activity read 97.7%.
The remaining activity was 95.8% (LYN (Homo sapiens, UniProt P07948)).

Block 3 — organism: Cryptosporidium parvum; technique: time-kill; cell line: HCT-8; strain: nanoluciferase-expressing; direction: higher = more parasites
Structure (SMILES): CN(C(=O)c1ccn2ncc(-c3ccc(C(N)=O)cc3)c2c1)c1ccc(C#N)cn1
20 µM, 4 h — parasite luminescence: 92300 RLU and 90400 RLU.
6.667 µM, 24 h — parasite luminescence: 71200 RLU and 109000 RLU.
The parasite luminescence was 147000 RLU and 171000 RLU (0.00305 µM, 72 h).
For 0.2469 µM, 24 h: parasite luminescence read 99200 RLU and 84600 RLU.
0.00305 µM, 8 h — parasite luminescence: 109000 RLU and 100000 RLU.

Block 4 — read-out: cell-free assay; technique: competition with immobilised ligand; tested at: 1 µM
SMILES: N#CC1(c2ccccn2)CCN(Cc2cc(C(=O)N3CCCC3)c(=O)n3ccccc23)CC1
The remaining binding was 80% (EGFR (Homo sapiens, UniProt P00533, G719C)).
FLT3 (Homo sapiens, UniProt P36888, R834Q) — remaining binding: 100%.
For MAP3K5 (Homo sapiens, UniProt Q99683): remaining binding read 80%.
For PAK5 (Homo sapiens, UniProt Q9P286): remaining binding read 93%.
For PRKACB (Homo sapiens, UniProt P22694): remaining binding read 54%.
For ANKK1 (Homo sapiens, UniProt Q8NFD2): remaining binding read 79%.
It gave 75% for remaining binding (ACVR2B (Homo sapiens, UniProt Q13705)).
CDK9 (Homo sapiens, UniProt P50750) — remaining binding: 88%.
SGK1 (Homo sapiens, UniProt O00141) — remaining binding: 100%.
For MAP3K7 (Homo sapiens, UniProt O43318): remaining binding read 99%.
CDK7 (Homo sapiens, UniProt P50613) — remaining binding: 82%.
It gave 100% for remaining binding (PIP5K1A (Homo sapiens, UniProt Q99755)).
The remaining binding was 92% (CDK5 (Homo sapiens, UniProt Q00535)).
The remaining binding was 76% (PIK3CA (Homo sapiens, UniProt P42336, E545K)).
Ribosomal protein S6 kinase alpha-5, C-terminal kinase domain (RPS6KA5, Homo sapiens, UniProt O75582) — remaining binding: 90%.
The remaining binding was 82% (GRK2 (Homo sapiens, UniProt P25098)).

A few entries again (block 4):
CDK9 (Homo sapiens, UniProt P50750) — remaining binding: 88%.
SGK1 (Homo sapiens, UniProt O00141) — remaining binding: 100%.
For MAP3K7 (Homo sapiens, UniProt O43318): remaining binding read 99%.
CDK7 (Homo sapiens, UniProt P50613) — remaining binding: 82%.
